Results pooled from the literature.
Parts stem from different laboratories: compare values within a part only.

Sample 1
Target: Sodium-dependent serotonin transporter (SLC6A4, Homo sapiens, UniProt P31645)
Chain of UniProt P31645 (whole entry, looked up): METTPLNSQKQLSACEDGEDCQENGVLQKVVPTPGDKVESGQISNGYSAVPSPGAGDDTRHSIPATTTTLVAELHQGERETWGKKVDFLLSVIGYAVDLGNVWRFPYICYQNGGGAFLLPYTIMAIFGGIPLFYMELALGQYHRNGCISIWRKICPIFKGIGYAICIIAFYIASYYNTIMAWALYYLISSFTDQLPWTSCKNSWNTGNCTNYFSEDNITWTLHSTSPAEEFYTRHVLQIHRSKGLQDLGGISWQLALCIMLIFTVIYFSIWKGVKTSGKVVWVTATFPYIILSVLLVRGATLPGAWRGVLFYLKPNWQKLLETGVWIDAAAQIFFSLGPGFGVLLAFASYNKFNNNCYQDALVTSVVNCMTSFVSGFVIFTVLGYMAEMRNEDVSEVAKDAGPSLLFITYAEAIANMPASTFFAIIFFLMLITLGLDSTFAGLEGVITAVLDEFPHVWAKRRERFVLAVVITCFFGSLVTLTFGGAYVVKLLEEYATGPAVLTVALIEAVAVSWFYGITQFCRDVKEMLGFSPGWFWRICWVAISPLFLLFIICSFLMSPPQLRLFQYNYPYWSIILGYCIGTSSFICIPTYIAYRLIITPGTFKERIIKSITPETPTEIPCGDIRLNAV
Effect on: cell-free assay
Concentration: 10 µM
Quantity: inhibition
COc1cc(C(=O)O)ncc1C#Cc1ccccc1NS(=O)(=O)c1cccc2c(N(C)C)ccnc12: 3.99%
FC(F)(F)c1ccc2c(c1)nc(-c1cccnc1)n2C1CC1: -5.44%
CC(=O)Nc1ncc(CN2CCC[C@H](Cc3cc(C)nc(C)c3)C2)s1: 7.21%
O=C(NCCCC1CCCCC1)c1ccc(CNC(=O)c2cnn(-c3ccccc3)c2C(F)(F)F)cc1: 0.18%
Cc1ncc(-c2cc(Cl)ccc2F)cc1-n1c(=O)n(CC(N)=O)c2ccccc21: 14.3%
NS(=O)(=O)c1cc(NC(=O)C2(c3ccccc3Cl)CC2)ccc1Oc1cccc(Cl)c1: 8.86%
CCC(=NO)C(C)=Cc1ccc(F)c(C)c1: 8.28%
CN(C)CC#Cc1ccc(OCCCc2sc(N3CCc4cccc(C(=O)Nc5nc6ccccc6s5)c4C3)nc2C(=O)O)c(F)c1: 16.4%
Cc1ccccc1Oc1cc(-n2c(=O)cc(C(F)(F)F)[nH]c2=O)c2ccccc2c1Cl: -21.4%
O=C(NNS(=O)(=O)c1ccccc1F)c1cc(F)cc(-c2ccccn2)c1: -16.7%
CCC(F)(F)c1cc(N2CCC(S(C)(=O)=O)CC2)nc2sc(C(N)=O)c(N)c12: 8.94%
Nc1cnc(N2CCc3cc(S(=O)(=O)Nc4c(F)cc(Cl)cc4F)cc(N4CCCC4=O)c32)nc1: 9.34%
O=c1nc(-c2ccccn2)sc2ccccc12: -10.2%
CN(c1ccnc(CNc2nc(Nc3ccc4c(c3)CC(=O)N4)ncc2C(F)(F)F)n1)S(C)(=O)=O: 33.5%
c1ccc(N2CCN(Cc3nc4ccccc4[nH]3)CC2)nc1: 17%
NS(=O)(=O)c1cc(NC(=O)Cc2ccccc2)ccc1Oc1cccc(Cl)c1: 22.7%
Cc1c(NC(=O)c2cc(C(N)=O)nc3cc(F)ccc23)c(C(F)(F)F)nn1Cc1ccc(C#N)cc1: 0.483%
O=S(=O)(NC1CCC(c2cc(F)ccc2F)(S(=O)(=O)c2ccc(Cl)cc2)CC1)C(F)(F)F (stereo not shown): -3.67%
CCOc1ccc(S(=O)(=O)Nc2ccc(Cl)cc2C#Cc2cnc(C(=O)O)cc2OC)c2ncccc12: 6.49%
N#CC1(c2ccccn2)CCN(Cc2cc(C(=O)N3CCCC3)c(=O)n3ccccc23)CC1: -12%
O=C(c1ccc(F)cc1)N1CC(COc2ccc(Br)cc2)(C(=O)O)C1: -6.29%
Cc1cc(Nc2nccc(C)n2)cc(-c2cnc([C@@]3(O)CC[C@H](C(=O)O)C(C)(C)C3)s2)c1: 3.34%
O=C(Nc1ccc(Oc2ccc(F)cc2)cc1)N1CCc2ncccc2[C@H]1c1ccc(F)cc1: 21.1%

Sample 2
Cell line: HEK-293T-ACE2-TMPRSS2
Method: cell count
Concentration: 10 µM
Quantity: viability
CC(C)C[C@H](NC(=O)[C@H](CCc1ccccc1)NC(=O)CN1CCOCC1)C(=O)N[C@@H](Cc1ccccc1)C(=O)N[C@@H](CC(C)C)C(=O)[C@@]1(C)CO1: 131%
O=C(NC1CCCCCC1)c1ccc(-c2ccc(F)cc2)nc1: 108%
O=C(Nc1ccc(Br)cc1)c1c(O)cccc1O: 129%
Cn1c2c(c(=O)n(C)c1=O)C(c1cccc(Br)c1)C1=C(COC1=O)N2 (stereo not shown): 88%
[O-][n+]1ccccc1[S-].[O-][n+]1ccccc1[S-].[Zn+2]: 107%
COc1cccc(C(=O)N/N=C(\C)c2ccccc2O)c1: 84%
CS(=O)(=O)c1ncc(Cl)c(C(=O)N2CCN(C(c3ccccc3)c3ccccc3)CC2)n1: 67%
Cc1cc(C(=O)N(C)Cc2nc3ccccc3n2C)cc(S(N)(=O)=O)c1C: 66%
Cn1nc(-c2nnc(-c3ccc(F)cc3)o2)c2c1CCN(S(=O)(=O)c1ccc(Cl)s1)C2: 104%
CCc1noc([C@@H]2CC(F)(F)CN2C(=O)C2CCOCC2)n1: 97%
CS(=O)(=O)c1cc(C(F)(F)F)cc(S(C)(=O)=O)c1S(C)(=O)=O: 66%
Cc1cnc(C)c(-c2cc(O)c3c(c2)CN(C(=O)C2CCOCC2)CCO3)n1: 68%
COc1ccc(C2CC(=O)Nc3cc(O)c(C)cc32)cc1Cn1cccn1 (stereo not shown): 102%
CCS(=O)(=O)c1ncc(Cl)c(C(=O)Nc2ccc(S(=O)(=O)N(C)c3ccccc3)cc2)n1: 65%
Cc1ccccc1OCCCn1cc(C(=O)c2ccccc2)c2ccccc21: 221%
O=S(=O)(c1ccc(-c2nnc(C3CCC3)o2)o1)N1CCN(C2CCCCC2)CC1: 147%
Cc1oc(-c2ccc(C(F)(F)F)cc2)nc1CN1CCN(c2ccccc2)C(=O)C1: 111%
Fc1ccc(Nc2nc3nonc3nc2Nc2cccc(C(F)(F)F)c2)cc1: 66%
Cc1ccsc1CNc1ccc(C(=O)N2CCCC(Cn3ccnc3C)C2)cc1 (stereo not shown): 68%
CCc1c(O)cc(O)c(C(=O)c2ccc(OCCN3CCOCC3)c(OC)c2)c1CC(=O)N(CCOC)CCOC: 112%
CCCS(=O)(=O)c1ncc(Cl)c(C(=O)Nc2ccc(OCC)cc2)n1: 65%
N#CC1(NC(=O)Cn2ncc(Cl)c(Cl)c2=O)CCCCC1: 71%
CCN(c1ccc2sc(C(=O)Nc3cccc(OC)c3)cc2c1)S(C)(=O)=O: 75%
N#CC(=NNc1ccc(OC(F)(F)F)cc1)C(=O)c1ccc(Cl)cc1: 77%
O=C(c1cccc(N2CCCN(Cc3ccccc3)C2=O)c1)N1CCN(c2cccc(Cl)c2)CC1: 78%

Sample 3
Cell line: HaCaT
Concentration: 100 µM
Time: 36 h
Quantity: viability
C[C@H]1CC(=O)C[C@@H]2CC[C@H]3[C@@H]4CC[C@H](O)[C@@]4(C)CC[C@@H]3[C@]21C: 61%
Cl[C@H]1[C@H](Cl)[C@@H](Cl)[C@@H](Cl)[C@H](Cl)[C@H]1Cl: 19.3%
Oc1cc(Cl)ccc1Oc1ccc(Cl)cc1Cl: 5.32%
N#Cc1ccccc1-c1cc(-c2ccccn2)cn(-c2ccccc2)c1=O: 47.5%
Cc1cccc([C@H](C)c2cnc[nH]2)c1C: 108%
C[C@]12CC[C@H]3[C@@H](CCC4=CC(=O)CC[C@@]43C)[C@@H]1CC[C@@H]2OC(=O)CCc1ccccc1: 108%
COc1cc2c(cc1OC)C13CCN4CC5=CCOC6CC(=O)N2C1C6C5CC43 (stereo not shown): 84.5%
Cn1c(CCCC(=O)O)nc2cc(N(CCCl)CCCl)ccc21: 72.2%
COc1cccc2c1cc([N+](=O)[O-])c1c(C(=O)O)cc3c(c12)OCO3: 36.1%

Sample 4
Cell line: HEK-293T/ACE2
Concentration: 10 µM
Time: 16 h
Relative to: vehicle
Quantity: viability
Cc1noc(NS(=O)(=O)c2ccc(N)cc2)c1C: 105%
Cc1ccc(Sc2ccccc2N2CCNCC2)c(C)c1: 98.9%
O=c1[nH]c2ccccc2n1C1CCN(CCCC(c2ccc(F)cc2)c2ccc(F)cc2)CC1: 104%
CN(C)[C@@H]1C(O)=C(C(N)=O)C(=O)[C@@]2(O)C(O)=C3C(=O)c4c(O)cccc4[C@@](C)(O)[C@H]3C[C@@H]12: 106%
C[C@H](CS)C(=O)N1CCC[C@H]1C(=O)O: 99.8%
O=C(OOC(=O)c1ccccc1)c1ccccc1: 101%
CCN(CCO)CCCC(C)Nc1ccnc2cc(Cl)ccc12 (stereo not shown): 98.3%
Cc1cnc(NC(=O)C2=C(O)c3ccccc3S(=O)(=O)N2C)s1: 99.2%
CCCc1nc(C(C)(C)O)c(C(=O)OCc2oc(=O)oc2C)n1Cc1ccc(-c2ccccc2-c2nnn[nH]2)cc1: 105%
NCC1(CC(=O)O)CCCCC1: 102%
COc1ccccc1OCC(O)CO (stereo not shown): 102%
Nc1nc(Cl)nc2c1ncn2[C@H]1C[C@H](O)[C@@H](CO)O1: 84.4%
Cc1cc(C2CCCCC2)n(O)c(=O)c1: 74%
CS(=O)(=O)OCCCCOS(C)(=O)=O: 97.3%
O=S(=O)(O)CCS: 101%
CC1COc2c(N3CCN(C)CC3)c(F)cc3c(=O)c(C(=O)O)cn1c23 (stereo not shown): 104%

For quick reference, copied from above (sample 2):
CS(=O)(=O)c1ncc(Cl)c(C(=O)N2CCN(C(c3ccccc3)c3ccccc3)CC2)n1: 67%
Cc1cc(C(=O)N(C)Cc2nc3ccccc3n2C)cc(S(N)(=O)=O)c1C: 66%
Cn1nc(-c2nnc(-c3ccc(F)cc3)o2)c2c1CCN(S(=O)(=O)c1ccc(Cl)s1)C2: 104%
CCc1noc([C@@H]2CC(F)(F)CN2C(=O)C2CCOCC2)n1: 97%
CS(=O)(=O)c1cc(C(F)(F)F)cc(S(C)(=O)=O)c1S(C)(=O)=O: 66%
Cc1cnc(C)c(-c2cc(O)c3c(c2)CN(C(=O)C2CCOCC2)CCO3)n1: 68%
COc1ccc(C2CC(=O)Nc3cc(O)c(C)cc32)cc1Cn1cccn1 (stereo not shown): 102%
CCS(=O)(=O)c1ncc(Cl)c(C(=O)Nc2ccc(S(=O)(=O)N(C)c3ccccc3)cc2)n1: 65%
Cc1ccccc1OCCCn1cc(C(=O)c2ccccc2)c2ccccc21: 221%
O=S(=O)(c1ccc(-c2nnc(C3CCC3)o2)o1)N1CCN(C2CCCCC2)CC1: 147%
Cc1oc(-c2ccc(C(F)(F)F)cc2)nc1CN1CCN(c2ccccc2)C(=O)C1: 111%
Fc1ccc(Nc2nc3nonc3nc2Nc2cccc(C(F)(F)F)c2)cc1: 66%
